Experimental data of several laboratories.
A part holds a random share of what one study measured. Positions count from the first letter of the parent shown.

Set 1
Target: Ras GTPase-activating protein-binding protein 1, full length (G3BP1, Homo sapiens, UniProt Q13283)
UniProt Q13283, sequence (whole entry, looked up): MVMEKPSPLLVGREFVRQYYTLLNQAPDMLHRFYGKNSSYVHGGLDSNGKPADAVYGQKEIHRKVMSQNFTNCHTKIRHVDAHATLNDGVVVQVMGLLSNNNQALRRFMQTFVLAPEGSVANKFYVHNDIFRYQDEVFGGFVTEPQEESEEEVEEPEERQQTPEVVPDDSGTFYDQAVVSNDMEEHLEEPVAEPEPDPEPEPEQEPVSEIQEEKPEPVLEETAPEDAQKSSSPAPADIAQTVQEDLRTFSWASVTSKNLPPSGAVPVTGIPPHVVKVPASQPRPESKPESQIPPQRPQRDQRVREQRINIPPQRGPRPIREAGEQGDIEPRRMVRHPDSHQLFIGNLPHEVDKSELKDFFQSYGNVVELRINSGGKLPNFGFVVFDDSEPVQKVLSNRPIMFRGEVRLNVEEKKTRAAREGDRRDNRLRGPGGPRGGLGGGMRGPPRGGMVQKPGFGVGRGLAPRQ
Method: RNA Bind-n-Seq
Form: RNA
Matrix: in vitro
Tested at: 200 nM
Notes: whole 134-nt RNA, ends assumed
Added: 150 mM KCl
Baseline: input library
Direction: higher = stronger binding
Sequence	log2 enrichment
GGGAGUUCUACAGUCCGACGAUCCAAGUCCUGUGCUACACAUCGUAUGUACCGAAUCGGGGAAGGGGAAGGGGAAGGGGAAAGUAUUAUGUUACGCCGUUCGGAUCUGCACUUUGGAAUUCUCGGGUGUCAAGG	1.23
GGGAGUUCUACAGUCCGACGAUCUGGGAGGUGGAUUUUGUUUAUUUUUUUAGCUAAUUUCCAGGGGUGGGAAUUUUUUUUUAAUAUGUGUCAUGAAUAAAGUUGUUUUUGAAAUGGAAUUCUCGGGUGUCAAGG	-0.0122
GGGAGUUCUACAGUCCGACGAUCAAGUCCUGUGCUACACAUCGUAUGUACCGAAUCGUGUGUGUGUGUGUGUGUGUGUGAAAGUAUUAUGUUACGCCGUUCGGAUCUGCACUUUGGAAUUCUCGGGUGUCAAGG	0.537
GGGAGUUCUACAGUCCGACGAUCACCAUGCAGGUGGUCAUCUUUGGGAAGUGGGGCAAGGGGGGGAUAGGGAGGGGGGUAACACUUUGGGAACAGGUGGUCCCAGGUCGUUUCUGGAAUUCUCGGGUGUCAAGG	0.842
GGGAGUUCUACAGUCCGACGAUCUGGCCCUGGUGGCAUGCGGGGAGGAAGAGGUGGCCUCAUGGAUCGUGGUGGUCCCGGUGGAAUGUUCAGAGGCGGCCGUGGUGGAGACAGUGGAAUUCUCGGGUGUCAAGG	-0.0251
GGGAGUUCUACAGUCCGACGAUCGCAGGAAGUAAAAACAAAUGGAAAAAAUUCGGAUAGUGGCAGGGGUGGGGGUUGCUAAGGAAAGGGUGGGAUGGGAGUGGGUAAAGAGUUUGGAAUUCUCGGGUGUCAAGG	0.712
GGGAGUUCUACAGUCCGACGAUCUCAAGUCCUGUGCUACACAUCGUAUGUACCGAAUCGGGAAGGGGAAGGGGAAGGGAAAGUAUUAUGUUACGCCGUUCGGAUCUGCACUUCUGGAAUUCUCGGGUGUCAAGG	1.07
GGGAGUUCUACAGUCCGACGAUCUCAAGUCCUGUGCUACACAUCGUAUGUACCGAAUCGGGAAAGGAAAGGGGAAAGGAAAGUAUUAUGUUACGCCGUUCGGAUCUGCACUUCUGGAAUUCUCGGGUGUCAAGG	-0.75
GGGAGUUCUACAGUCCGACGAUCUGGACAGGUUGCUGGACCCCGCCAACAGAGCCCACCUGGGCCUGGAGGAGCAGCUGAGAGAGCUGCUGGACAUGCUCGACCUCACCUGCGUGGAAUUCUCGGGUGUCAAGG	-0.534
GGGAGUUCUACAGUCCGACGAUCCUGUGCUACACAUCGUAUGUACCGAAUCGGGCCCCCCCGGGCCCCCCCGGGGCCCCCCCGGGAAAGUAUUAUGUUACGCCGUUCGGAUCUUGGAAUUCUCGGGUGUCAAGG	-1.34

Set 2
Target: CCNB2, cyclin fold, Cln2 fusion (human)
Method: yeast growth competition, sequencing
Matrix: yeast
Notes: weak parent motif
Baseline: not given
Direction: higher = stronger binding
Starting sequence: SLBP docking peptide (human); ARYKRKLLINDFG; partner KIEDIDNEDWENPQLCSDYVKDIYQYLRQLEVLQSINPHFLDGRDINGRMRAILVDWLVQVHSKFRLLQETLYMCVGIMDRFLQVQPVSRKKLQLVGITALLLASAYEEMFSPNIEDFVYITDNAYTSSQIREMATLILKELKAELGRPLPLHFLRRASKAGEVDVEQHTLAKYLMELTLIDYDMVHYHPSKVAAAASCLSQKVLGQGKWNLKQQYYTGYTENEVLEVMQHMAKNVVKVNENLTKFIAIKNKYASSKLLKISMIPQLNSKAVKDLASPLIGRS
Change	normalised enrichment score
D11T	0.86
G13L	-0.00441
K6I	0.52
D11K	0.347
K6C	0.952
I9N	0.581
L8G	0.725
D11E	0.802
R2N	0.53
N10A	0.488
R5P	0.48
R5H	0.241
R5S	0.842
R2A	-0.115
R2W	0.326
L8N	0.757
A1Y	0.507
F12I	0.505
G13Q	0.443
K6W	0.613
L7E	0.605
K4V	0.632
A1S	0.755

Set 3
Target: Histone acetyltransferase KAT6A, winged helix 2, GST fusion (KAT6A, Homo sapiens, UniProt Q92794, residues 85-181)
Method: protein binding microarray
Form: double-stranded DNA, one strand shown
Matrix: in vitro
Tested at: not given
Notes: 8-mer, flanks averaged, mean of 2 arrays, mostly near background
Baseline: not given
Direction: higher = stronger binding
Target sequence (chain): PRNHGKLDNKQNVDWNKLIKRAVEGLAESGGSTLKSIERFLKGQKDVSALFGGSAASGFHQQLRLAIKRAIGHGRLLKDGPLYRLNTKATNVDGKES
Sequence	E-score
CCATAATC	-0.0121
AGGCTGCA	0.0372
CGAAGATC	-0.0481
CGCCATAC	0.00122
AAGTGTCA	-0.166
ATAGTTCC	-0.00271
CGCGCCGA	0.197
ATCCTTTC	-0.00987
AATTCCCC	0.0139
TCAGGTAA	-0.174
CCGTAAGA	-0.132
CGCTATCC	0.0108
TAGCCCAA	0.0471
CCACTAAA	0.0624
ATTAGTCG	0.0711
CCAATTGG	0.0695
AGTGCCGG	0.0932
ACGAGCCG	0.0811
CCCAGTTC	0.103
ACACACCG	0.0354
GACGCATC	0.086
ATCTATAG	-0.187
CGAAGGCC	0.271

Set 4
Target: RNA binding protein fox-1 homolog 2, RRM domain, GST-SBP tag (RBFOX2, Homo sapiens, UniProt O43251-10, residues 100-194)
Method: RNA Bind-n-Seq
Form: RNA
Matrix: in vitro
Tested at: 365 nM
Notes: natural RNA segment, single round, ends assumed
Baseline: no-protein control
Direction: higher = stronger binding
Residues (chain): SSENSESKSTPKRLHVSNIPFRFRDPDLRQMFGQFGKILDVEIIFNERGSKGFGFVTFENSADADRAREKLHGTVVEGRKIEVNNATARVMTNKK
Sequence	RBNS enrichment (R)
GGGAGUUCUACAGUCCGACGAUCACAGUUUUCAAAAAUAAAGAAAAGUAGGUCCUAAUGAUGUAUUGCUUCCCCGAAAUGGUAUCACACAGGUCAUCCAUGAAUCGCUGUAGUGGCUAGGGGUAUGUGGGACUUGGAAUUCUCGGGUGCCAA	0.634
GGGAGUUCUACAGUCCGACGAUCACCUUGCUUUUGUGAACACGUCACUGCAUAGGUUCUGAGAGGACCUGGCUGGGUUUAUUUAAGAGUGGGAGAGCAUCCAUUGUCCAAACUGAGAGCAGCAACAGCCCUCUUGGAAUUCUCGGGUGCCAA	2.75
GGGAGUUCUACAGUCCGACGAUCAAAUGGAUUUAUAGAAUAUUUGUAAAUCUAUUUUUAGUGUUUGUUCGUUUUUUUAACUGUUCAUUCCUUUGUGCAGAGUGUAUAUCUCUGCCUGGGCAAGAGUGUGGAGGUGGAAUUCUCGGGUGCCAA	0.532
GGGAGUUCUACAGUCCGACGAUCCUCACAUGUCACUUCCAGAGGAACGGGGGACAGCCAGGCUCGCCCAUGGGCCUUCAGGAAUAUUUAUACAUGGCCCAGCCUGCACUGCCCGGGCGAGGGCAGAGGACACUUGGAAUUCUCGGGUGCCAA	0.617
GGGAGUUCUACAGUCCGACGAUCCAUAUCAAGAUGCGACCCAAGGGGCUAAGUGGGAACAGUGGUUAUGUGGACUCGUAAGAUUCACAGAGAAUGUGUGCUCUGUUGUGAUUCUCUUGUCAUAGUCCUGGUUUUGGAAUUCUCGGGUGCCAA	3.42
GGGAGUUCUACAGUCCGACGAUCUAGAAACUGAAAAAUAAUCCAGUGACAUCAUUCUGGGUGUGUUCUCACUAGCUCGCGGGGCCACUUGCUGCCCAUGUGACGAAUAACAGAAGAUCUUAUCUUGCCAGGCCUGGAAUUCUCGGGUGCCAA	5.19
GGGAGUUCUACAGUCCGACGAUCUUUAGUGAUAUUUAGACCCCUCUCAGUUAAGAAAUGCUUAGAUUAAAAAAAAAAAAUUACGUAGGAUUAAUACAGAAAUUUAAUCAUGUCUGAUUAAUUGCUCUAUUAAAUGGAAUUCUCGGGUGCCAA	0.959
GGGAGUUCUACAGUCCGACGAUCGGCUGCUGGACUUCCUGCAGGGGCUCCAGUGAAGCCCAGCACUGCUGCAGGGGGUGGGCUGCCUGCCUGCUCUGAGCUCUCUCUUGCACGCUCUCUCUUCUCUCCCAGGCUGGAAUUCUCGGGUGCCAA	3.57
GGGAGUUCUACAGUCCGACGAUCGAAGGGCUCUGUCAACAUGGACCUGGACUAGGCUCUGUGCUGGCUCCCUCCCCCACUUCAUGAGAUGUGUUUGCCAUAGUAUGUGAUCCUGUAUAACAGACUGAGUCUAUUGGAAUUCUCGGGUGCCAA	0.452
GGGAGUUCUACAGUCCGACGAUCUCUUGGUCAGCCUCAGUGAUGGCCUGACCCCAGCUGUGAGGCCUUGUGAGCUAAGGCUGAAGAGACCUUGCCUGUGGGAGCUGGGGUGGUACCUGCCCCAACAGCCCCCCUGGAAUUCUCGGGUGCCAA	0.193
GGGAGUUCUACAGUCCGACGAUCCAUUUGCCUCUUCGUUUUGACCAAGCACAAAAGAGAUAUUCCCUAGAAGUGUCACACGGAGGCUUCUGUGCCAAAGACUGCCUUGUAGAGGUCUCAUCACCUCACACUUCUGGAAUUCUCGGGUGCCAA	1.64
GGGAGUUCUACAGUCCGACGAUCUUGAUCAGUUUUAUGCCGCAUUGUUCGUGGCAGUAGACCACAUCUGUUCGUCUGCACAGCUGUGAGGCGAUGCUGUUCCAUCUGCACAUGAAGGACCCCCAUACAGCCUGUGGAAUUCUCGGGUGCCAA	0.391

For quick reference, copied from above (set 3):
Sequence	E-score
CCATAATC	-0.0121
AGGCTGCA	0.0372
CGAAGATC	-0.0481
CGCCATAC	0.00122
AAGTGTCA	-0.166
ATAGTTCC	-0.00271
CGCGCCGA	0.197
ATCCTTTC	-0.00987
AATTCCCC	0.0139
TCAGGTAA	-0.174
